Results of several laboratories.
Lines come from different studies, so protocols differ. “And” joins repeats or separate records; there may be more than shown.

SMILES	target or system	assay	system	setting	how to read	endpoint	result
COc1cnc2cccc(N3CCc4c(cc(Cn5ccnc5C)cc4-c4cn(C)nc4C(F)(F)F)C3=O)c2c1	KURAMOCHI	cell growth, inhibitor	–	120 h	–	EC50	19.6 µM
COc1ccc(C(=O)/C=C/Sc2nc3ccccc3o2)cc1	Mus musculus	gene silencing, high-content imaging	LDR reporter GFP cells	retest run 1	–	maximal activity	30%
CN(Cc1cccnc1)C(=O)c1ccc([C@H]2[C@@H](F)[C@@H](F)C[C@@H](F)[C@H]2F)cc1	–	liver microsome stability	cynomolgus liver microsomes	1 µM	–	hepatic clearance	21 mL/min/kg
CCc1ccc(NC(=O)C2CCC(CNS(=O)(=O)c3ccc4c(c3)CC(C)N4C(C)=O)CC2)cc1 (centres unmarked)	Mus musculus	gene silencing, high-content imaging	LDR reporter GFP cells	retest run 1	–	maximal activity	29%
Cn1cc(-c2ccc(-c3cncc(Cl)c3N3CCC4(CCNC4=O)CC3)cc2)cn1	COLO 205	gene expression, microarray, item: CBS mRNA	–	concentration not given, 6 h	baseline: untreated cells	log2 fold change	2.25
CCc1ccc(Oc2nccc(-c3c(-c4ccc(F)cc4)ncn3C3CCNCC3)n2)cc1	Trypanosoma brucei	–	–	unit not given	baseline: pEC50 T. brucei minus pTC50 HepG2	selectivity	0.8
COc1ccccc1OCC(=O)N/N=C/C=C/c1ccc([N+](=O)[O-])o1	Mus musculus	gene silencing, high-content imaging	LDR reporter GFP cells	retest run 1	–	maximal activity	38%
N#Cc1ccc2c(-c3ccncc3)c(-c3ccc(F)cc3)nn2c1	–	kinase binding, competitor, MIB/MS competition, item: TOR1	Candida albicans cell lysate	1 µM	baseline: DMSO	log2 fold change	-0.718
CCOc1ccc(NC(=O)c2nc(S(=O)(=O)Cc3ccccc3F)ncc2Cl)cc1	Mus musculus	gene silencing, high-content imaging	LDR reporter GFP cells	retest run 1	–	maximal activity	14%
CCn1c(-c2nonc2N)nc2cncc(C(=O)N3CCNCC3)c21.Cl	Trypanosoma brucei brucei	cell growth	–	concentration not given, PKIS HTS	–	inhibition	7.9%
OC(CCN1CCCCC1)(c1ccccc1)C1CC2C=CC1C2 (centres unmarked)	–	resting-state EEG	healthy elderly humans	oral, 4 mg, eyes closed, LS mean	baseline: baseline	change in EEG Alpha2-power Pz-O1	32%
NS(=O)(=O)c1ccc(N/N=C2\C(=O)Nc3ccc(-c4cnco4)cc32)cc1	Trypanosoma brucei	–	–	unit not given	baseline: pEC50 T. brucei minus pTC50 HepG2	selectivity	> 2.4
c1coc(-c2n[nH]cc2-c2ccnc3ccccc23)c1	PBS2 (Candida albicans)	kinase binding, MIB/MS competition	Candida albicans lysate	10 µM	baseline: DMSO	log2 fold change	-0.23
CN(C)CCC(=O)Nc1ccc(C2CCCCC2)cc1	–	liver microsome stability	dog liver microsomes	1 µM	–	hepatic clearance	30 mL/min/kg
COc1cc(C=NNc2ncnc3c2cnn3-c2ccccc2)ccc1O	Trypanosoma brucei	–	–	unit not given	baseline: pEC50 T. brucei minus pTC50 HepG2	selectivity	> 1.8
CCn1cc(-c2cc(Cn3ccnc3)cc3c2CCN([C@H](c2cc(OC)ccn2)C2CC2)C3=O)c(C(F)(F)F)n1	HMCB	cell growth, inhibitor	–	120 h	–	EC50	14.9 µM

SMILES	target or system	assay	system	setting	how to read	endpoint	result
NS(=O)(=O)c1ccc(N/N=C2\C(=O)Nc3ccc4ncccc4c32)cc1	Trypanosoma brucei	–	–	unit not given	baseline: pEC50 T. brucei minus pTC50 HepG2	selectivity	> 3.1
CC(C)NCC(O)c1ccc(O)c(O)c1 (centres unmarked)	β2 adrenergic receptor E122Q (human)	PRESTO-Tango luciferase	HTLA cells	10 nM	–	β-arrestin2 recruitment	124 RLU and 127 RLU and 177 RLU and 296 RLU and 140 RLU and 154 RLU
CCn1c(=O)c(-c2cc[nH]n2)cc2c(C)nc(N)nc21	Enterovirus A71	histopathology	EV71-infected suckling mice, liver	0.25 mg/kg	direction not given	inflammatory infiltration score	0
Oc1ccccc1-c1n[nH]cc1-c1ccnc2ccccc12	CTK1 (Candida albicans)	kinase binding, MIB/MS competition	Candida albicans lysate	1 µM	baseline: DMSO	log2 fold change	-0.02
N#Cc1sc2nc(-c3ccccc3)cc(C(F)(F)F)c2c1N	Mus musculus	gene silencing, high-content imaging	LDR reporter GFP cells	retest run 2	–	maximal activity	19%
CN(c1ccc(NC(=O)Nc2c(Cl)cccc2Cl)cc1)c1ccnc(Nc2cccc(CS(C)(=O)=O)c2)n1	Trypanosoma brucei	–	–	unit not given	baseline: pEC50 T. brucei minus pTC50 HepG2	selectivity	0.8
Nc1cccc2c1C(=O)N(C1CCC(=O)NC1=O)C2=O (centres unmarked)	MM1.S	XTT	–	0.6 µM	–	viability	47% and 29% and 40%
COc1cc2nc(=S)n3[nH]c(CCn4nc(C)cc4C)nc3c2cc1OC	Mus musculus	gene silencing, high-content imaging	LDR reporter GFP cells	retest run 1	–	maximal activity	119%
O=C(Nc1n[nH]c2nc(-c3ccc(O)cc3)c(Br)cc12)C1CC1	Trypanosoma brucei	–	–	unit not given	baseline: pEC50 T. brucei minus pTC50 HepG2	selectivity	1.8
CC(C)n1ncc2c(C(=O)NCC3(C)CNC3)cc(C3CC3)nc21	Enterovirus D68	viral replication	RD, US/MO/14-18947	1 µM	baseline: untreated	plaque area	0%
Br.N=c1n(CC(=O)c2ccc([N+](=O)[O-])cc2)c2ccccc2n1Cc1ccccc1Cl	Mus musculus	gene silencing, high-content imaging	LDR reporter GFP cells	retest run 1	–	maximal activity	20%
CCn1c2ccccc2c2cc(NC(=O)CN3CCN(S(=O)(=O)c4cc(Cl)ccc4Cl)CC3)ccc21	NAADP receptor	antagonist, fluo-3 fluorescence	Lytechinus pictus, egg homogenate	up to 6 µM, with: NAADP 30 to 50 nM	–	NAADP-mediated Ca2+ release	inactive
CCN(CC)C(=S)SSC(=S)N(CC)CC	Mus musculus	gene silencing, high-content imaging	LDR reporter GFP cells	retest run 2	–	maximal activity	78%
Cc1nn(C)c2cc(N(C)c3ccnc(Nc4cccc(S(N)(=O)=O)c4)n3)ccc12	Trypanosoma brucei	–	–	unit not given	baseline: pEC50 T. brucei minus pTC50 HepG2	selectivity	2.1
C[C@H](Oc1ccc(Br)cc1-c1ccon1)C(=O)O	–	relative refractory period	human, tibialis anterior muscle	100 mg, SAD	–	difference from placebo	0.221 ms
CCn1cc(-c2cc(Cn3ccoc3=N)cc3c2CCN([C@@H](C)c2cc(OC)ccn2)C3=O)c(C(F)(F)F)n1	KURAMOCHI	cell growth, inhibitor	–	120 h	–	EC50	0.463 µM

Some of these lines once more:
SMILES	target or system	assay	system	setting	how to read	endpoint	result
CN(Cc1cccnc1)C(=O)c1ccc([C@H]2[C@@H](F)[C@@H](F)C[C@@H](F)[C@H]2F)cc1	–	liver microsome stability	cynomolgus liver microsomes	1 µM	–	hepatic clearance	21 mL/min/kg
CN(C)CCC(=O)Nc1ccc(C2CCCCC2)cc1	–	liver microsome stability	dog liver microsomes	1 µM	–	hepatic clearance	30 mL/min/kg
CCn1cc(-c2cc(Cn3ccnc3)cc3c2CCN([C@H](c2cc(OC)ccn2)C2CC2)C3=O)c(C(F)(F)F)n1	HMCB	cell growth, inhibitor	–	120 h	–	EC50	14.9 µM
CCOc1ccc(NC(=O)c2nc(S(=O)(=O)Cc3ccccc3F)ncc2Cl)cc1	Mus musculus	gene silencing, high-content imaging	LDR reporter GFP cells	retest run 1	–	maximal activity	14%
